Measurements from different studies.
Protocols differ between the studies behind these lines. Numbers after ± are the reported error.
CNR1: Cannabinoid receptor 1 (CNR1, Homo sapiens, UniProt P21554)
Sequence of UniProt P21554 (whole entry, unmodified, looked up): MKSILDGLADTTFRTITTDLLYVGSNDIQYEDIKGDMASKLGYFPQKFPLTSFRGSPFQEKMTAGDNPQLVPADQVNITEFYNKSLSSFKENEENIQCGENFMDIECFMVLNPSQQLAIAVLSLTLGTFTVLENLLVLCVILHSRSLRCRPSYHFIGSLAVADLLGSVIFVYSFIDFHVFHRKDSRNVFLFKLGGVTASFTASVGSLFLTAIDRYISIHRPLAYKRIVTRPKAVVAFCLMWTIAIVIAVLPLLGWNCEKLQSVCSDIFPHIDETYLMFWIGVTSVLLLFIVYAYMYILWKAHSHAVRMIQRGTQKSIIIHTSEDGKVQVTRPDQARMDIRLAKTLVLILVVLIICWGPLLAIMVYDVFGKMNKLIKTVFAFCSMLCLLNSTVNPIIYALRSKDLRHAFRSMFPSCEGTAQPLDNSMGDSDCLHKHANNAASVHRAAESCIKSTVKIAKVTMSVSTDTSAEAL
Si: Sucrase-isomaltase, intestinal (Si, Rattus norvegicus, UniProt P23739)
Sequence of UniProt P23739 (whole entry, looked up): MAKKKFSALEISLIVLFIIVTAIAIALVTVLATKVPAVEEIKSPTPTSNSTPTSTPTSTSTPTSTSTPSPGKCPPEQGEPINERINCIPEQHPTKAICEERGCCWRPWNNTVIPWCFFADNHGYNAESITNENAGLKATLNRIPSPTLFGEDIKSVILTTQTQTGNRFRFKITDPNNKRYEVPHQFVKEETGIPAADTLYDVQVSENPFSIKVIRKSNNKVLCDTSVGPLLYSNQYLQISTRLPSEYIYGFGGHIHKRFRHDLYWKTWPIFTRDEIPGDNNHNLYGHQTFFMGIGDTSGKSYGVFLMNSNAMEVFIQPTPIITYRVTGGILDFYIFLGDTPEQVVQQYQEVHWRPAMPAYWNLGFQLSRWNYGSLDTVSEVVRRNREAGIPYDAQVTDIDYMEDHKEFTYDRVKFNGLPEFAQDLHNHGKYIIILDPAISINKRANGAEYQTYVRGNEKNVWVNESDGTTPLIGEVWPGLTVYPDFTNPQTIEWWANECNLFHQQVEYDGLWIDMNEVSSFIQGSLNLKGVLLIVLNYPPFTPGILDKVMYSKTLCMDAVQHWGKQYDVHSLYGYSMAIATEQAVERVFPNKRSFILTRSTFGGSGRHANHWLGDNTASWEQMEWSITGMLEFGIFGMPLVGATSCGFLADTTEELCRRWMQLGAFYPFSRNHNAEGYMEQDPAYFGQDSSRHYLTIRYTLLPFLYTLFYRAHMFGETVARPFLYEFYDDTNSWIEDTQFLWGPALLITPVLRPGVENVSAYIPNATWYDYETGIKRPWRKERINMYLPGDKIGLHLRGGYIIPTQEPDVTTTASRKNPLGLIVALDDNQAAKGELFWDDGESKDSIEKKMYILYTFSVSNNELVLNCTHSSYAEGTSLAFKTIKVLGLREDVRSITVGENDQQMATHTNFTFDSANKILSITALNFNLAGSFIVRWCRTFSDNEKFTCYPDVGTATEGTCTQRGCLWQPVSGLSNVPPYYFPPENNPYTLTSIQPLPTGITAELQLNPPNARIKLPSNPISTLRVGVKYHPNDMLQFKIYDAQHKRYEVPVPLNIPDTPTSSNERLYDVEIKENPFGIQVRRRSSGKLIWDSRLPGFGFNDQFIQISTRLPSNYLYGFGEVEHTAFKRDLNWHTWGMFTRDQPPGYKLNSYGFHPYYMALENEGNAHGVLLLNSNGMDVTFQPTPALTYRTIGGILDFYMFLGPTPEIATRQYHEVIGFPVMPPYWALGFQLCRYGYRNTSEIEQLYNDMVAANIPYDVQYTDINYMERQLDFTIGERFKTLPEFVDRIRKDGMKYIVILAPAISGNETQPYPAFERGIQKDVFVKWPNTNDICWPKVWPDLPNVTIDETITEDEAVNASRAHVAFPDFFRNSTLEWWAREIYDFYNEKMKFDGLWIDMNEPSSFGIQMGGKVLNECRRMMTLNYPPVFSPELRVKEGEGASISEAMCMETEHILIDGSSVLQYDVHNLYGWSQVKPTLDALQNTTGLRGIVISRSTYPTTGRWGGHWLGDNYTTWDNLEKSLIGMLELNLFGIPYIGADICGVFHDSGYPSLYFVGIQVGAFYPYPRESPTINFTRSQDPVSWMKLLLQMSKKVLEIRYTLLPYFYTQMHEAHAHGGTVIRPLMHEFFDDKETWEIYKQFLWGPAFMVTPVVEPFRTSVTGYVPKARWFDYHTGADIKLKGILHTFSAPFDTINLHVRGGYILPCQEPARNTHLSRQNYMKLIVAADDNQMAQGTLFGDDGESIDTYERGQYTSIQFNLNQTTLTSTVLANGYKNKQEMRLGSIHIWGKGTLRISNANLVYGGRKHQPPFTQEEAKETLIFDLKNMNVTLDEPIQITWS
Sequence of UniProt P35462 (whole entry, looked up): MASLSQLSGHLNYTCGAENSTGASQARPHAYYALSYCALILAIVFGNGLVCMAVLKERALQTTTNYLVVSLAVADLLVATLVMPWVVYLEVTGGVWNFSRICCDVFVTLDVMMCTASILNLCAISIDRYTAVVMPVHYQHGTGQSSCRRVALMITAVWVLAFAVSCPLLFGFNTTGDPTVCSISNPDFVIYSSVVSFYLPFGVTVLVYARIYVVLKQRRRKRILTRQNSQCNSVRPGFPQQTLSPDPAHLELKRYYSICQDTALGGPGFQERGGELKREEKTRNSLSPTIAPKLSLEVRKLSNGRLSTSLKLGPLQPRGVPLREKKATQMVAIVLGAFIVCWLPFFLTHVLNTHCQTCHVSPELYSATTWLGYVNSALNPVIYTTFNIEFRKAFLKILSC
Sequence of UniProt P41143 (whole entry, unmodified, looked up): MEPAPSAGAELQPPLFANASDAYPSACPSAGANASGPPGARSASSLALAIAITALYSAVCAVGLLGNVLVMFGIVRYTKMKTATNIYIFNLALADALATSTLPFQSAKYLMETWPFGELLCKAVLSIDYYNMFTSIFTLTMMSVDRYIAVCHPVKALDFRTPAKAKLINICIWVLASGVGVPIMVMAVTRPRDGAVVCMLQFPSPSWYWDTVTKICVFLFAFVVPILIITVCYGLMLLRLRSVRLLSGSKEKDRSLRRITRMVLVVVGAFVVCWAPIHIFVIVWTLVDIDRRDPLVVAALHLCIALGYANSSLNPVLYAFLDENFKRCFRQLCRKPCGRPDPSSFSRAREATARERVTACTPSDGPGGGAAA
Sequence of UniProt P41586 (whole entry, unmodified, looked up): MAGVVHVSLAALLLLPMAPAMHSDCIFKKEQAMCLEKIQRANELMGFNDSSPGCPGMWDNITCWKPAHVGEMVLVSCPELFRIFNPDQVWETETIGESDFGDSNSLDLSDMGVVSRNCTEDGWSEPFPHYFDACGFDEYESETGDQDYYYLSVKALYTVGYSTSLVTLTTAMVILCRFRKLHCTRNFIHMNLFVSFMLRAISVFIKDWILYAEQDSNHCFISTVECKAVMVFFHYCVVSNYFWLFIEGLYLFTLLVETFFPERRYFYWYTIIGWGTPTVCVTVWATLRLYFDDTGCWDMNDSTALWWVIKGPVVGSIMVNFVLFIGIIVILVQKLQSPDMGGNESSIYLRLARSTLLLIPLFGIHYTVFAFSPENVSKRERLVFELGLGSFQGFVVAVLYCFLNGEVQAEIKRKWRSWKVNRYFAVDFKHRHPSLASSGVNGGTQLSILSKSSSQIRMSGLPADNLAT
Sequence of UniProt P31645 (whole entry, looked up): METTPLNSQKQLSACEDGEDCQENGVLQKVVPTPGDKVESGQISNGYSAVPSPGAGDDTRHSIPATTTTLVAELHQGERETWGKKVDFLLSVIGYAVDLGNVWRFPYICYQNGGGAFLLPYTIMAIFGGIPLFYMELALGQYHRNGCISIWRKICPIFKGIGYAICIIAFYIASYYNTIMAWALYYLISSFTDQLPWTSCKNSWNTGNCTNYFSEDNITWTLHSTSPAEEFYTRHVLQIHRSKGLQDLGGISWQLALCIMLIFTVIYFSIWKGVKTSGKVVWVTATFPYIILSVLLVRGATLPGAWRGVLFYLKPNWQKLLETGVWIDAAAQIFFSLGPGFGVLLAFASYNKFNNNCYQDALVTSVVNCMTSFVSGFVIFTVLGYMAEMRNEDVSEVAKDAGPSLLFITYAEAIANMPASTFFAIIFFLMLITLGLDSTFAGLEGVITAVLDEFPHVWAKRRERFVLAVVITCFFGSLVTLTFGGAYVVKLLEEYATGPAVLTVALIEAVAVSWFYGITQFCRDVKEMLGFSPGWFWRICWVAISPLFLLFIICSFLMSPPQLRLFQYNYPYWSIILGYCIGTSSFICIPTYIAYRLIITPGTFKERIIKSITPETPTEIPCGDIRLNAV
Sequence of UniProt P14416 (whole entry, looked up): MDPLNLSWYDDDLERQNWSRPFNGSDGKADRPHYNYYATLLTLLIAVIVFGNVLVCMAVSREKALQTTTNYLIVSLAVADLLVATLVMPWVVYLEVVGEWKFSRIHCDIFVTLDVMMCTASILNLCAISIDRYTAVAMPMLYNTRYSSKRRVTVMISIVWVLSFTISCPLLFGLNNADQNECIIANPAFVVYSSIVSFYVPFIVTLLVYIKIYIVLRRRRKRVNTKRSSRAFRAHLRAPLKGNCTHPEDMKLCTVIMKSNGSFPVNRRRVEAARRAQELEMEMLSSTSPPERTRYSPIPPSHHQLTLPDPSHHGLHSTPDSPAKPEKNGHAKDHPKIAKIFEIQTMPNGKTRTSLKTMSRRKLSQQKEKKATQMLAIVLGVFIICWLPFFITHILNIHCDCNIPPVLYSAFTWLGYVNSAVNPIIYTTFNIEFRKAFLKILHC
Sequence of UniProt P00784 (whole entry, looked up): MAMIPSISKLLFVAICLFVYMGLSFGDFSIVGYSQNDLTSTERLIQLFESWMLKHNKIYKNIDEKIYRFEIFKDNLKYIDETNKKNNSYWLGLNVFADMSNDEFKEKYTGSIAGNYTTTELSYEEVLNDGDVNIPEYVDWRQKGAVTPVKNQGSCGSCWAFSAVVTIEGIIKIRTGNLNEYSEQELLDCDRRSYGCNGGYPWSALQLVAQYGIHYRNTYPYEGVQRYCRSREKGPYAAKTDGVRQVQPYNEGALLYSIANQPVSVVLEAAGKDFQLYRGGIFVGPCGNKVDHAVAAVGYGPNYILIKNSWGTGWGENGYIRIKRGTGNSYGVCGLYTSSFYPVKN

CC(C)(CO)NCc1ccc(-c2cccc(C(F)(F)F)c2)o1
Ki (D(3) dopamine receptor (DRD3, Homo sapiens, UniProt P35462); binding): 400 nM

COc1ccccc1C(C[N+](=O)[O-])c1c(-c2ccccc2)[nH]c2ccccc12 (stereo not drawn)
EC50 (Cannabinoid receptor 1 (CNR1, Homo sapiens, UniProt P21554, I245F); G protein activation, agonist, BRET): 1400 nM

CCN(CC)C(=O)c1ccc(C(c2cccc(O)c2)N2CC(C)N(Cc3ccccc3)CC2C)cc1 (stereo not drawn)
Ki (Delta-type opioid receptor (OPRD1, Homo sapiens, UniProt P41143, W274A)): 0.71 ± 0.15 nM

Cc1ccc2c(C(C[N+](=O)[O-])c3cccs3)c(-c3ccccc3)[nH]c2c1 (stereo not drawn)
EC50 (CNR1; G protein activation, agonist, BRET): 140 nM

CCCc1cc(O)c2c(c1)OC(C)(C)C1=C2[C@@H](O)[C@@](C)(O)CC1
IC50 (Si; enzyme activity, inhibitor, absorbance): 540000 nM

CCCCCn1cc(C(=O)c2ccc3c(c2)CC(C)(C)C3)c2ccccc21
EC50 (Cannabinoid receptor 2 (CNR2, Homo sapiens, UniProt P34972); cAMP, agonist): 33.1 nM

CCC[C@H](C(=O)c1ccccc1)N1CCCC1
Ki (Sodium-dependent serotonin transporter (SLC6A4, Homo sapiens, UniProt P31645); transporter uptake, inhibitor, radiometric): 653000 nM

CC[C@H](C)[C@H](NC(=O)[C@H](CO)NC(=O)[C@H](CC(N)=O)NC(=O)[C@H](CC(C)C)NC(=O)[C@H](Cc1ccc(O)cc1)NC(=O)[C@H](CCCCN)NC(=O)[C@H](CCCCN)NC(=O)[C@@H](NC(=O)[C@H](C)NC(=O)[C@H](CCSC)NC(=O)[C@H](CCC(N)=O)NC(=O)[C@H](CCCCN)NC(=O)[C@H](CCCN=C(N)N)NC(=O)[C@H](CC(C)C)NC(=O)[C@H](CCCN=C(N)N)NC(=O)[C@@H](NC(=O)[C@H](Cc1ccc(O)cc1)NC(=O)[C@H](CC(N)=O)NC(=O)[C@H](CC(=O)O)NC(=O)[C@@H](NC(=O)[C@H](Cc1ccccc1)NC(=O)[C@@H](NC(=O)[C@H](C)NC(=O)[C@H](CC(=O)O)NC(=O)[C@H](CO)NC(=O)[C@@H](N)Cc1c[nH]cn1)C(C)C)[C@@H](C)O)[C@@H](C)O)C(C)C)C(=O)N[C@@H](CC(C)C)C(=O)N[C@@H](CC(N)=O)C(N)=O
EC50 (Pituitary adenylate cyclase-activating polypeptide type I receptor (ADCYAP1R1, Homo sapiens, UniProt P41586, del89-109); Gs dissociation, downward phase, agonist, BRET2 TRUPATH; COS-7; 37 °C): 91.2 nM

COc1cccc(C(C[N+](=O)[O-])c2c(-c3ccccc3)[nH]c3ccccc23)c1 (stereo not drawn)
EC50 (CNR1; G protein activation, agonist, BRET): 1980 nM

CCN(CC)C(=O)[C@@H]1C=C2c3cccc4c3c(cn4C(=O)c3ccco3)C[C@H]2N(C)C1
Ki (D(2) dopamine receptor (DRD2, Homo sapiens, UniProt P14416); ligand displacement, radioligand): > 10000 nM

CC(C)CC(C(=O)N1CC2(CC1C#N)C(=O)Nc1ccccc12)N(C)C(=O)c1cc2c(F)cc(F)c(F)c2[nH]1 (stereo not drawn)
IC50 (Papain (Carica papaya, UniProt P00784); enzyme activity, inhibitor): > 100000 nM

CCCCCc1cc(O)c2c(c1)OC(C)(C)[C@@H]1CCC(C)=C[C@@H]21
IC50 (Si; enzyme activity, inhibitor, absorbance): 420000 nM

Excerpt of the above:
CCC[C@H](C(=O)c1ccccc1)N1CCCC1
Ki (Sodium-dependent serotonin transporter (SLC6A4, Homo sapiens, UniProt P31645); transporter uptake, inhibitor, radiometric): 653000 nM
